Experimental data pooled from the literature.
Each numbered part is a random draw from the data of one study; scales do not carry over between parts.

Block 1 — method: protein binding microarray; molecule type: double-stranded DNA, one strand shown; matrix: in vitro; tested at: not given; relative to: not given; direction: higher = stronger binding
Target: Histone acetyltransferase KAT6A, both winged helices, GST fusion (KAT6A, Homo sapiens, UniProt Q92794, residues 1-181)
Setting: 8-mer, flanks averaged, mean of 2 arrays, mostly near background
Residues (chain): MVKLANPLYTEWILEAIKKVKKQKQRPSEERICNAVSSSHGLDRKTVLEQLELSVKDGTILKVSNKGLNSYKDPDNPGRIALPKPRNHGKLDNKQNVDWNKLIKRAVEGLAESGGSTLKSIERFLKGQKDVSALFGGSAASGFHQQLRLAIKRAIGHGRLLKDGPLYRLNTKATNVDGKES
`ATGCTCTG` has an E-score of -0.109.
With `CGGTGGTA` the E-score was 0.0697.
`GCCTCTCA` gave an E-score of -0.202.
`TATAGTCA` has an E-score of -0.176.
The E-score of `CGCAAATA` is reported as 0.0316.
`GCTCTACA` has an E-score of 0.00816.
For `ATAAGGGC`, the E-score was -0.188.
For `ACTGTACA`, the E-score was -0.0782.
`AGCCGAGA` has an E-score of 0.0854.
With `TTCATAAA` the E-score was -0.0948.
`AATTGAAT` has an E-score of 0.00716.
The E-score of `GGCTGAAC` is reported as 0.117.
`ATCCAGGG` gave an E-score of -0.172.
With `AATTGTAA` the E-score was -0.0107.
For `AACAACTA`, the E-score was -0.154.
The E-score of `AGATTAGG` is reported as -0.119.
`AATATGTA` gave an E-score of -0.0583.
The E-score of `CCTCCTAC` is reported as -0.107.
`CACACATC` gave an E-score of -0.187.
For `CAGGACCA`, the E-score was -0.0696.

Block 2 — method: RNA Bind-n-Seq; molecule type: RNA; matrix: in vitro; tested at: 200 nM; setting: whole 134-nt RNA, ends assumed; together with: 150 mM LiCl; relative to: input library; direction: higher = stronger binding; each molecule: 7-deaza-guanosine replaces G
Target: Fragile X messenger ribonucleoprotein 1, C-terminal low-complexity region (Fmr1, Mus musculus, UniProt P35922)
`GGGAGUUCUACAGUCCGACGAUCUAACUUUAGAGGAGGAUCUGAUGGAUAUGGCAGUGGACGUGGAUUUGGGGAUGGCUAUAAUGGGUAGGGAGGAGGACCUGGAGGUGGCAAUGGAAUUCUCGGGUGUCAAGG` gave a log2 enrichment of -0.0637.
`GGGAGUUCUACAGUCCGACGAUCAAGUCCUGUGCUACACAUCGUAUGUACCGAAUCGGGAAAAAGGGUUUUUGGGAGGGAAAGUAUUAUGUUACGCCGUUCGGAUCUGCACUUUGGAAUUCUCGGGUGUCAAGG` gave a log2 enrichment of -1.47.
With `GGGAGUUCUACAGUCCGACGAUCAGUCCUGUGCUACACAUCGUAUGUACCGAAUCGGGAAAAGGAAAAGGGGAAAAGGGGAAAGUAUUAUGUUACGCCGUUCGGAUCUGCACUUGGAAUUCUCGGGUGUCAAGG` the log2 enrichment was -0.678.
`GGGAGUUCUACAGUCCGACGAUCUGCACUGACUGGUGGUGUCAACCCAUGGCUCAACUGGAAGCACUGUGGAAGAAGAUGGAGGGUGUGGUAAGUCCAUCAGACCUGGGACCGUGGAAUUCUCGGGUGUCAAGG` has a log2 enrichment of -1.38.
With `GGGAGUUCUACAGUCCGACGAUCUCAAGUCCUGUGCUACACAUCGUAUGUACCGAAUCGGGGAAGGGAAGGGAAGGGGAAAGUAUUAUGUUACGCCGUUCGGAUCUGCACUUCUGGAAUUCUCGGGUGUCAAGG` the log2 enrichment was -0.442.
For `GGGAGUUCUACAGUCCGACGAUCCACAGACAACACGCACCCACACAGACACAGAGGGAAGGGGUUGGGAUGGGGAAAGGGUGCACAGCAGGGCGGGGUAGGACCCCAGCCCCUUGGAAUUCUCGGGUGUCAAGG`, the log2 enrichment was 0.327.
For `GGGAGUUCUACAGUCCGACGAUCCCUGUGCUACACAUCGUAUGUACCGAAUCGGGGUUUUUUUGGGGUUUGGGGAAAAAGGGGAAAGUAUUAUGUUACGCCGUUCGGAUCUGCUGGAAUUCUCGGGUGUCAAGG`, the log2 enrichment was -1.13.
`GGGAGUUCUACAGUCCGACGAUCCCUGUGCUACACAUCGUAUGUACCGAAUCGGGGCCCCCCGGGCCCCCCGGCCCCCCGGGGAAAGUAUUAUGUUACGCCGUUCGGAUCUGCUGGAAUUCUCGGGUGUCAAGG` gave a log2 enrichment of -1.01.
`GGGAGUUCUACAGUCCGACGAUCACCAUGCAGGUGGGCAUCUUUGGGAAGUGGGGAAAGGGGGGGAUAGGGAGGGGGGUAACACUUUGGGAACAGGUGGUCCCAGGUCGUUUCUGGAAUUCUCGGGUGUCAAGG` has a log2 enrichment of 1.6.
`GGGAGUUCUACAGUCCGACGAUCACCAUGCAGGUGGGCAUCUUUGAAAAGUGGGGCAAGGGGGGGAUAGGGAGGGGGGUAACACUUUGGGAACAGGUGGUCCCAGGUCGUUUCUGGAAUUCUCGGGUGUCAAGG` has a log2 enrichment of 1.41.
`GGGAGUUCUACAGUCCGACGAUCUUACUUUAGAGGAGGAUCUGAUGGAUAUGGCAGUGGACGUGGAUUUGGGGAUGGCUAUAAUGGGUAUGGAGGAGGACCUGGAGGUGGCAAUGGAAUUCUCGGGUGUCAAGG` gave a log2 enrichment of 0.488.

Block 3 — method: RNA Bind-n-Seq; molecule type: RNA; matrix: in vitro; tested at: 15 pmol; setting: 4-mer, random 30-nt RNA, single round; together with: DMSO vehicle, 2 mM AMP-PNP; relative to: input library; direction: higher = stronger binding
Target: Eukaryotic initiation factor 4A-I (EIF4A1, Homo sapiens, UniProt P60842, residues 1-406, full length assumed)
Chain of UniProt P60842 (whole entry, looked up): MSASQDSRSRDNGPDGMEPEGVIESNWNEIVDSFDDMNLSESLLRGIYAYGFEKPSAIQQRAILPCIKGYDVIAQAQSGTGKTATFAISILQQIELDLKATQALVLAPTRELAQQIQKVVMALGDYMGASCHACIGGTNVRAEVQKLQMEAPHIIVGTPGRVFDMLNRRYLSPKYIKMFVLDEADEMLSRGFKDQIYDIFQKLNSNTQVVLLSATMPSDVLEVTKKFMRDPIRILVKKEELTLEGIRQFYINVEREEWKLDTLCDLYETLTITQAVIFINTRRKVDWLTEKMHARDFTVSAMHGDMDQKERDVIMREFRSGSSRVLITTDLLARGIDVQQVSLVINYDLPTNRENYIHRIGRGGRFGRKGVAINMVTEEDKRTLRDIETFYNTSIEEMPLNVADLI
For `CGAG`, the 4-mer enrichment was 0.875 fold.
`UCCA` gave a 4-mer enrichment of 1.63 fold.
The 4-mer enrichment of `UGCC` is reported as 1.25 fold.
`UCUA` gave a 4-mer enrichment of 0.797 fold.
`UAGU` has a 4-mer enrichment of 0.69 fold.
`GGUU` gave a 4-mer enrichment of 0.938 fold.
The 4-mer enrichment of `CAGU` is reported as 0.965 fold.
The 4-mer enrichment of `CAUA` is reported as 1.08 fold.
`GCAG` has a 4-mer enrichment of 1.21 fold.
`GAAG` has a 4-mer enrichment of 1.21 fold.
For `AAAU`, the 4-mer enrichment was 1.13 fold.
The 4-mer enrichment of `UGAC` is reported as 1.51 fold.
With `AUCG` the 4-mer enrichment was 0.504 fold.
For `GUUG`, the 4-mer enrichment was 0.881 fold.
For `UUAG`, the 4-mer enrichment was 0.784 fold.
The 4-mer enrichment of `CCAG` is reported as 1.57 fold.

Block 4 — method: RNA Bind-n-Seq; molecule type: RNA; matrix: in vitro; tested at: 365 nM; relative to: no-protein control; direction: higher = stronger binding
Target: RNA binding protein fox-1 homolog 2, RRM domain, GST-SBP tag (RBFOX2, Homo sapiens, UniProt O43251-10, residues 100-194)
Setting: natural RNA segment, single round, ends assumed
Construct (chain): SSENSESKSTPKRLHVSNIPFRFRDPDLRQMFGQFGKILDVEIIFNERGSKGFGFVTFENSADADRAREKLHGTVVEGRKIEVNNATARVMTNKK
Under “RBNS enrichment (R)”, `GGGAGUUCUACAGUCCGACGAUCGCUUUUUCUGGCAGCCAGAAGCCAAUGCUUAUGCAGGCUCCCGCAUCUCAGCCAGAGGCCAGAUGUUCUUAGAACUGACUUGACCUGAGCAGACCCCCUAACCCUUCAGAUGGAAUUCUCGGGUGCCAA` is recorded as 0.282.
Under “RBNS enrichment (R)”, `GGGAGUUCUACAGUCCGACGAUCUCUGUCCUCAAACAGUGAACCCAGGCUGCAGCCUGAGACCUGGACUCUAGCCCCCAUCCAUCCUUCCCAUCUCCCAGCUAGAGGGAGAGCUGGGCUUUGGACAGAAAAGAUGGAAUUCUCGGGUGCCAA` is recorded as 0.361.
`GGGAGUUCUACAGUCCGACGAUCCAGCAUGCAGAACAAAAACUUUAAACUUUCUCUCUCACUAUACAGUAUAUUGUCAUGUGAAAGUGUGGAAUGGAAGAAAUGUCGAUCCUGUUGUAACUGAUUGUGAACACUGGAAUUCUCGGGUGCCAA`: “RBNS enrichment (R)” 0.718.
`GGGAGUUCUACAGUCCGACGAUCAGUAACAAAAUUAUUUUUCAUUGGCCUAUUCUGUUCUUGUGUCUAAACUAACAUUACAUUAAUUUUUAAUCUUAGUUUCUGAUAAACACAAGCCAUUCCUAUCAAAAUAUUGGAAUUCUCGGGUGCCAA` — result for “RBNS enrichment (R)”: 0.224.
`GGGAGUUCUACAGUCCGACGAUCUCGCCCCUCCAGUAAGCUGUAGAGUUUCUAUGUGCCUACAUACAUUUCUGUGACAAGUAUUUGUCGUAAAUUAAUUUUAAUUGUGUAUCAAGUGAAAAAGAAACACUGAGUGGAAUUCUCGGGUGCCAA` — result for “RBNS enrichment (R)”: 0.585.
Under “RBNS enrichment (R)”, `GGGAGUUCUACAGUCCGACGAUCGACUCUGCUGCCAUCCGUUCUCCCAGUCCCAAGGGUCCACGAUGUACAAAGUCAUUUCGGCCAGUAGGUGUGCAGACCCCUCCCCGCCACGAUCGUCGCUGUGCUUGGUGUGGAAUUCUCGGGUGCCAA` is recorded as 0.691.
`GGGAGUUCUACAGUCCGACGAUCCUUAAGCCUUUCUCCAAGUCUGGAUUCCAGAAAUGUUCCCCACAUCAAGGCUCUGACACCCCAGCCCUCCAAACCUGAACUCUGAGGCCUAGGCCUCUUUAAGUCAAGACUGGAAUUCUCGGGUGCCAA` — result for “RBNS enrichment (R)”: 0.24.
`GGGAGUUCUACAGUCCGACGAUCAUUUAACUGUCAAACAGAGGAAUCUGUGUUUGUUACAAUAAUAUAACAGAUGCCUUGAAGGACCCGCGUCAGGCUUCUGGAGUUGUGAAGGAGGGUGGGAUCUCCUACUCUGGAAUUCUCGGGUGCCAA`: “RBNS enrichment (R)” 0.532.
`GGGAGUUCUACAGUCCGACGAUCUCAGGUUUCUACAAAUAGGGUAAUUGUAAAUUUAAAGCAUUAGCAUUUAUUGGUGAAUAAUGUAUAUAUCCCCAUUCCAAGAAAUAUAAGUGAGUGAAGUUGAAAUAAAAUGGAAUUCUCGGGUGCCAA` — result for “RBNS enrichment (R)”: 0.518.
For `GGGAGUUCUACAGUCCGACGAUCUAGACAAGUUUAUAUAUAACUUACCAAGAUGUUGGCUGUCCUGGUGUAUUGCCAGACAGCUCUCUUUUGGUUCCCAUUCCAAAUGUGCUGCUGUCCUUCUUUGCAUUUCAUGGAAUUCUCGGGUGCCAA`, “RBNS enrichment (R)” read 0.24.
For `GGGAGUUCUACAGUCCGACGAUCGGACACUGGCCCCUCCACCCUCCCUCCCCUCCCGGCUCCCCGGCCAGAGGGAGAGCUUGGUCUCUGGACCUGCCUUAGGAAGGAGAGGGAGGGCAGGAAGGAAAAGAAAGUGGAAUUCUCGGGUGCCAA`, “RBNS enrichment (R)” read 0.162.
`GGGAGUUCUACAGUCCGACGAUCGGCGUUGCUAGGAUUGCGUCAGUUUUCCUGUUUGCACUAUUUCUUUUUGUAACAGUGACCCUGUCUUAAGUCUUUCAGAUCUCUUUGCUUUGAAACUUCGUCGAUUCCAUUGGAAUUCUCGGGUGCCAA` — result for “RBNS enrichment (R)”: 0.208.

Block 5 — method: protein-binding microarray; molecule type: double-stranded DNA, one strand shown; matrix: in vitro; tested at: 2540 nM top; setting: 60-bp whole probe; together with: salmon DNA 0.4 mg/ml; relative to: random background probes; direction: higher = stronger binding; shared flanks, not repeated: GCCTAGCAC … GTCTTGATTCGCTTGACGCTGCTG
Target: Interferon regulatory factor 3, full length, phosphomimetic (IRF3, Homo sapiens, UniProt Q14653, residues 1-427, S386D/S396D/S398D/S402D/T404D/S405D)
Chain of UniProt Q14653 (whole entry, unmodified, looked up): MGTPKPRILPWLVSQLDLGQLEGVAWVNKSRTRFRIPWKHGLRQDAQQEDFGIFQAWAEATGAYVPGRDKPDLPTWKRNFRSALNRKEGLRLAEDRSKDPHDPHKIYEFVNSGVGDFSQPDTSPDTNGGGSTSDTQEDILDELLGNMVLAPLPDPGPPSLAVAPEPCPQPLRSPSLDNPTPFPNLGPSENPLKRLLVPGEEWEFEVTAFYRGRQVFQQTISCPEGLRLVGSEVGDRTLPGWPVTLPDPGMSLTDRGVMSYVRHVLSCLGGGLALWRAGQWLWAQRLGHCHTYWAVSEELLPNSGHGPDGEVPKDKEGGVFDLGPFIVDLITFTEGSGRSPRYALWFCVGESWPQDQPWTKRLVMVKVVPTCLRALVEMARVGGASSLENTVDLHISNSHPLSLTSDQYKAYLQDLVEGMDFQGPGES
`AACGGTTTCGGTATCGGGACGTGCTAG`: “fitted relative affinity” 8.03 z-score.
`GACGGACTGCTTTTCCGGACGTGCTAG`: “fitted relative affinity” 0.302 z-score.
`TTAGGTTTAGACACTGGGTTAGTGCTA`: “fitted relative affinity” -0.41 z-score.
For `GACGGTCTCGGACTGGGGTCGTGCTAG`, “fitted relative affinity” read 0.16 z-score.
`GACGGTTCCGGTTTCGGCACGTGCTAG`: “fitted relative affinity” 5.59 z-score.
`GACGGACTGGTTTTCCTGACGTGCTAG` — result for “fitted relative affinity”: 0.278 z-score.
`GACGGTTTTGGACTGGGGACGTGCTAG`: “fitted relative affinity” 1.11 z-score.
`GACGATCTCAGTTTCGAGAAGTGCTAG`: “fitted relative affinity” 2.26 z-score.
For `TTAGATACCAGTCTCGATTAGTGCTAG`, “fitted relative affinity” read 1.46 z-score.
Under “fitted relative affinity”, `GACGGTCTCGGTTACGGGACGTGCTAG` is recorded as 1.16 z-score.
`TTTCTTTTCTTTTCTTTTTTGTGCTAG`: “fitted relative affinity” 7.52 z-score.
`CACGGTCTCGGTTTCGGGACGTGCTAG`: “fitted relative affinity” 3.73 z-score.
`TTAGGTCTCGATCTCGGTTAGTGCTAG` — result for “fitted relative affinity”: 1.01 z-score.
Under “fitted relative affinity”, `CTCATTCTCTGCTTGCGTCTGTGCTAG` is recorded as 2 z-score.
`GACGATATCCGGTTTCGAGACGTGCTA`: “fitted relative affinity” 2.81 z-score.
For `TCACTTTCCTTCTTGAAACTGTGCTAG`, “fitted relative affinity” read 11.1 z-score.
`TCAAGTCTCAACCCCCAAACTGTGCTA` — result for “fitted relative affinity”: -0.234 z-score.
`GACGGACTGGGGTTTGGGGACGTGCTA` — result for “fitted relative affinity”: -0.862 z-score.
`CTCTATACCCATGTAGAGAGGTGCTAG` — result for “fitted relative affinity”: 0.458 z-score.
`GACGAGCTGGGGTTTCGAGACGTGCTA` — result for “fitted relative affinity”: 0.027 z-score.
